{"data": "Published values gathered from unrelated publications", "note": "Numbered parts are unrelated; each lists some results of a single study.", "chain of UniProt Q9Y2H1 (whole entry, looked up)": "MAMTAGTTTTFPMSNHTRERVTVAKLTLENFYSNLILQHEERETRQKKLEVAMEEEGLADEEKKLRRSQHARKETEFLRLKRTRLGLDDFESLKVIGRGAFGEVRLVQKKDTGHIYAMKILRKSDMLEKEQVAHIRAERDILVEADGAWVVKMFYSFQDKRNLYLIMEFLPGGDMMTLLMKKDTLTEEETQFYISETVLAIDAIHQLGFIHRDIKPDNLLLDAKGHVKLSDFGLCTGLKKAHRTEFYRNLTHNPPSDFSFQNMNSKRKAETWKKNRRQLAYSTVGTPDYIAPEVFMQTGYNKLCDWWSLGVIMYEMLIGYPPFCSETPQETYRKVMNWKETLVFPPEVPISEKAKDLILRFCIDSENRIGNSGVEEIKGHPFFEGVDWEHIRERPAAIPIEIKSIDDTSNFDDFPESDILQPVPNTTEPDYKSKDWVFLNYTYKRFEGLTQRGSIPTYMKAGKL", "chain of UniProt P00519 (whole entry, unmodified, looked up)": "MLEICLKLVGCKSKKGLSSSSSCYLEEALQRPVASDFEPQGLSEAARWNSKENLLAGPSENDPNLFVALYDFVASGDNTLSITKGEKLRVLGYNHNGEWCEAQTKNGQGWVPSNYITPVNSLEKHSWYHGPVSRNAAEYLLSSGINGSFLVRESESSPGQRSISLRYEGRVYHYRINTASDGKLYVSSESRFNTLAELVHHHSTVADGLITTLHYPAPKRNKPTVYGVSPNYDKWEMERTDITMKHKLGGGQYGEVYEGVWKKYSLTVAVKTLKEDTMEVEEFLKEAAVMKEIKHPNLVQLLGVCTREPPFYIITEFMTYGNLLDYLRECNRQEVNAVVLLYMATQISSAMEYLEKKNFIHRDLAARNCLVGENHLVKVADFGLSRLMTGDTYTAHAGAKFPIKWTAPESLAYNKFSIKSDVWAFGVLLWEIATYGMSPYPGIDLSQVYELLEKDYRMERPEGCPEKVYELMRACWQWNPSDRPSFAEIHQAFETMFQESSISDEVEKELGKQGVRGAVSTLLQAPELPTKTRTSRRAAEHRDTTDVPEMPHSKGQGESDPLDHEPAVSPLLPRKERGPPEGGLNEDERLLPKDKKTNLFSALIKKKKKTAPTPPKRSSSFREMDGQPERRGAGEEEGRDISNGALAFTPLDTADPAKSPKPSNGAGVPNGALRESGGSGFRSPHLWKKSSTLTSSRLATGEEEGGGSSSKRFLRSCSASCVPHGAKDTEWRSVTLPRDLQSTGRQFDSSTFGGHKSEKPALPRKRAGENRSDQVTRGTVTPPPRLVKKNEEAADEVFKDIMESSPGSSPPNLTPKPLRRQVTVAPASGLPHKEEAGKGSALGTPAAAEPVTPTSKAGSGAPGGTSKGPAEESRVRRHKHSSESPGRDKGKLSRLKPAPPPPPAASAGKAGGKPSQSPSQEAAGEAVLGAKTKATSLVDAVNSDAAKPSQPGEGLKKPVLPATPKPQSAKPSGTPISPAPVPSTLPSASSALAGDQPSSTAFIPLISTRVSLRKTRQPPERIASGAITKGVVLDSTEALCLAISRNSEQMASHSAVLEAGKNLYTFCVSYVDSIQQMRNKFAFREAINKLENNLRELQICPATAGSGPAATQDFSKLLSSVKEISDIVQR", "chain of UniProt Q8TBX8 (whole entry, looked up)": "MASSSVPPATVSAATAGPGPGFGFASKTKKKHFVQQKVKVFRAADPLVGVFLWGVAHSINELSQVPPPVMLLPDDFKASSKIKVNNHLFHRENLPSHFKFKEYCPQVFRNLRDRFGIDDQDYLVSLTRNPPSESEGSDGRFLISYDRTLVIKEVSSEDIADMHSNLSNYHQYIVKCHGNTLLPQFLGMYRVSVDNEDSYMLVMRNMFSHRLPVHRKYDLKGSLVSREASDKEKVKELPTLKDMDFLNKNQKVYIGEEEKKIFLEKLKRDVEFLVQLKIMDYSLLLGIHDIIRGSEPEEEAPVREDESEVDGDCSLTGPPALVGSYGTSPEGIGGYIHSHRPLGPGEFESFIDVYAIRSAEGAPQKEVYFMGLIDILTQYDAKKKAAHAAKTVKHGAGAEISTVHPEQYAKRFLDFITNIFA", "chain of UniProt Q08881 (whole entry, looked up)": "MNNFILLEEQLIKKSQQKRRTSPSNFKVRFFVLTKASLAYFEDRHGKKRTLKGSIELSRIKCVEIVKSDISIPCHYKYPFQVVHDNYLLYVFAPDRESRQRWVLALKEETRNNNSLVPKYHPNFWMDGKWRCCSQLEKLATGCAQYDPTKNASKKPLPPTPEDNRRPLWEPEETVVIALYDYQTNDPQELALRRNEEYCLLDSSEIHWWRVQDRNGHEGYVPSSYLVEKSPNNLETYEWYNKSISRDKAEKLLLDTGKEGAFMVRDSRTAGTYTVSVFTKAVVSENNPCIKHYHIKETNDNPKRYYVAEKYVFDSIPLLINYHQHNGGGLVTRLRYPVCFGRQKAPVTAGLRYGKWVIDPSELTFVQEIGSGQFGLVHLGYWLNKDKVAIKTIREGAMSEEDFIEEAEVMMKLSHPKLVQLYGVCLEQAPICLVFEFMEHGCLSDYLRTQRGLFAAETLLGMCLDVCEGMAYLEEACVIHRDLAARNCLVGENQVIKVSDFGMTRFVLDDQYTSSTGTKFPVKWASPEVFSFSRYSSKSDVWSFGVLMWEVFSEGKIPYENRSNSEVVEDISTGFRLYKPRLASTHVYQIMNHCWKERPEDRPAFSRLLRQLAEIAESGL", "chain of UniProt Q13237 (whole entry, looked up)": "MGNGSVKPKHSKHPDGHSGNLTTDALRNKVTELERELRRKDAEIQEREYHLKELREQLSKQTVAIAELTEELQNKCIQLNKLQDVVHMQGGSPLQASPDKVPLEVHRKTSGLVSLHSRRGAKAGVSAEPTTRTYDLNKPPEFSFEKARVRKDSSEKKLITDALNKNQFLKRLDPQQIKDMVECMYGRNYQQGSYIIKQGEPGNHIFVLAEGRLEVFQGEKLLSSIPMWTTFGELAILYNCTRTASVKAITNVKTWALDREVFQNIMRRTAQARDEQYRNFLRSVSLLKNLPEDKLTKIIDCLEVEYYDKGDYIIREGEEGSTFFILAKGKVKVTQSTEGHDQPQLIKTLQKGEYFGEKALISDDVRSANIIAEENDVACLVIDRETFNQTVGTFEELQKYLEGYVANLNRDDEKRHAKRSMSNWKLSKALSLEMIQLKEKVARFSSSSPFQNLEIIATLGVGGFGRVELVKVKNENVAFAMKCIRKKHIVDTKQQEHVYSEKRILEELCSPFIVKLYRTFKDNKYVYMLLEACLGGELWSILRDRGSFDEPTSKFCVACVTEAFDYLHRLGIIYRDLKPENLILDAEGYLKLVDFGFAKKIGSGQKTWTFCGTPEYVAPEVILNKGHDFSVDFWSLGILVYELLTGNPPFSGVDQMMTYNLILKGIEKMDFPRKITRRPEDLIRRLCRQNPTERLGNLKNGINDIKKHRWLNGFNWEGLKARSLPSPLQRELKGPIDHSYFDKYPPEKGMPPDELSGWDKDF", "chain of UniProt Q9UQB9 (whole entry, looked up)": "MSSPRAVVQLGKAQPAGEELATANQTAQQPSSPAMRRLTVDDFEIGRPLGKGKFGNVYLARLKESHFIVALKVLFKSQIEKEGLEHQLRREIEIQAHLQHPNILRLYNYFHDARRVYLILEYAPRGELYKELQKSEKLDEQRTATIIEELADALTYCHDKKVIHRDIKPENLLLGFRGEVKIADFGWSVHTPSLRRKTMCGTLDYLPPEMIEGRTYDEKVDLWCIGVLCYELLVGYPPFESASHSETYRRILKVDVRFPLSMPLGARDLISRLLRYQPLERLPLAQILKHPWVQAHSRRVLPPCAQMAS"}
{"data": "Sample 1", "target": "Tyrosine-protein kinase Fes/Fps (FES, Homo sapiens, UniProt P07332)", "read-out": "enzyme activity", "action": "inhibitor", "tested at": "0.5 µM", "reference": "control", "chain of UniProt P07332 (whole entry, looked up)": "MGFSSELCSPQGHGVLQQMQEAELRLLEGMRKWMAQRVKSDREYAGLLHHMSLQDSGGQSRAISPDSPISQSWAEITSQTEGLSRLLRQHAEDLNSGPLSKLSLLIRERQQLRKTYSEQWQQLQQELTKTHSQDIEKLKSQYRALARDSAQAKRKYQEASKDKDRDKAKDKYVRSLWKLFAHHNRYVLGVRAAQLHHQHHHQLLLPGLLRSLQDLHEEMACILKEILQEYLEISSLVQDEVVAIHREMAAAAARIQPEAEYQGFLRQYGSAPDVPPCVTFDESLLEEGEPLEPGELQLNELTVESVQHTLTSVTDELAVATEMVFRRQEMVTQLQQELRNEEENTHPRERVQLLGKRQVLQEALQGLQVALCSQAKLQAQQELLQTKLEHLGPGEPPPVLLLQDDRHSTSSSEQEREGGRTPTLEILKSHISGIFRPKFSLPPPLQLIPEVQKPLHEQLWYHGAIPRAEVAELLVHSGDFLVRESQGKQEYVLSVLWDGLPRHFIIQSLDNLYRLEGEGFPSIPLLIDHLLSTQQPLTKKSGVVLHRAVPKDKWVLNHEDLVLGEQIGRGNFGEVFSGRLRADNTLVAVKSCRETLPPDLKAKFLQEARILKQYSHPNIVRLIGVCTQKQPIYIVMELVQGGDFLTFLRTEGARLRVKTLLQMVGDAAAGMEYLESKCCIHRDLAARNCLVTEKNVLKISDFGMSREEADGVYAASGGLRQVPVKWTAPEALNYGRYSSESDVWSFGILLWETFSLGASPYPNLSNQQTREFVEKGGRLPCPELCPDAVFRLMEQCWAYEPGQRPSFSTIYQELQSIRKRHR"}
{"SMILES": "COc1ccc(C(=O)Nc2sc3c(c2C(N)=O)CCCC3)cc1OC", "remaining activity": "102%"}
{"SMILES": "Oc1ccc(-c2nc(-c3ccncc3)c(-c3ccc(F)cc3)[nH]2)cc1", "remaining activity": "101%"}
{"SMILES": "N#CC(C#N)=C(N)/C(C#N)=C/c1ccc(O)cc1", "remaining activity": "101%"}
{"SMILES": "Cn1c2ccccc2c2c3c(c4c5ccccc5n(CCC#N)c4c21)CNC3=O", "remaining activity": "78.4%"}
{"SMILES": "CC(C)[C@H](CO)Nc1nc(Nc2cc(N)cc(Cl)c2)c2ncn(C(C)C)c2n1", "remaining activity": "69.2%"}
{"SMILES": "Nc1ccc2ncnc(NCCc3ccc(Oc4ccccc4)cc3)c2c1", "remaining activity": "99.6%"}
{"SMILES": "O=C1NC(=O)C(c2cn(CCCn3ccnc3)c3ccccc23)=C1Nc1ccccc1", "remaining activity": "103%"}
{"SMILES": "COc1cc2ncnc(Nc3ccc(Oc4ccccc4)cc3)c2cc1OC", "remaining activity": "99.6%"}
{"SMILES": "C#Cc1cccc(Nc2ncnc3cc(OCCOC)c(OCCOC)cc23)c1", "remaining activity": "105%"}
{"SMILES": "Nc1ncnc2n[nH]c(Nc3ccc(F)cc3)c12", "remaining activity": "100%"}
{"SMILES": "O=C(O)c1ccc2c3c1cccc3c(=O)n1c3ccccc3nc21", "remaining activity": "98.2%"}
{"SMILES": "CO[C@H]1C[C@@H]2CC[C@@H](C)[C@@](O)(O2)C(=O)C(=O)N2CCCC[C@H]2C(=O)O[C@H]([C@H](C)C[C@@H]2CC[C@@H](O)[C@H](OC)C2)CC(=O)[C@H](C)/C=C(\\C)[C@@H](O)[C@@H](OC)C(=O)[C@H](C)C[C@H](C)/C=C/C=C/C=C/1C", "remaining activity": "108%"}
{"SMILES": "O=C1NC(=O)C(c2cn(CCCO)c3ncccc23)=C1c1cnccn1", "remaining activity": "121%"}
{"SMILES": "O=C(CCCc1ccc(-c2ccccc2F)cc1)Nc1ccc(O)cc1", "remaining activity": "100%"}
{"SMILES": "O=C(Nc1cccc(Nc2cc(Nc3cccc(C(F)(F)F)c3)ncn2)c1)C1CC1", "remaining activity": "101%"}
{"data": "Sample 2", "Structure (SMILES)": "CCCCN(CCCC)C(=O)CN1C[C@@H](c2cc(OC)c3c(c2)OCO3)[C@H](C(=O)O)[C@H]1CC(C)(C)CCC", "read-out": "cell-free assay", "method": "competition with immobilised ligand", "tested at": "1 µM"}
{"target": "PIP4K2C (Homo sapiens, UniProt Q8TBX8)", "remaining binding": "80.7%"}
{"target": "Aurora kinase C (AURKC, Homo sapiens, UniProt Q9UQB9)", "remaining binding": "100%"}
{"target": "OXSR1 (Homo sapiens, UniProt O95747)", "remaining binding": "94%"}
{"target": "Tyrosine-protein kinase ABL1, non-phosphorylated (ABL1, Homo sapiens, UniProt P00519, F317I)", "remaining binding": "100%"}
{"target": "PRKG2 (Homo sapiens, UniProt Q13237)", "remaining binding": "100%"}
{"target": "STK38L (Homo sapiens, UniProt Q9Y2H1)", "remaining binding": "92.4%"}
{"target": "ITK (Homo sapiens, UniProt Q08881)", "remaining binding": "100%"}
{"target": "MINK1 (Homo sapiens, UniProt Q8N4C8)", "remaining binding": "100%"}
{"data": "Sample 3", "host": "mouse", "sample": "microsomes or S9", "tested at": "2 µM", "time": "0.5 h"}
{"Compound": "CN(C)CCCC(C#N)c1cccc2ccccc12 (stereo not shown)", "remaining compound [%]": 6.28}
{"Compound": "CN(C)CCn1c(=N)n(CC(O)c2ccc(Cl)c(Cl)c2)c2ccccc21 (stereo not shown)", "remaining compound [%]": 35.9}
{"Compound": "COc1cc2c(cc1OC)CN(C(=O)COc1cn(C)c(C)cc1=O)[C@H](C(N)=O)C2", "remaining compound [%]": 91.5}
{"Compound": "CCCC(NC(=O)c1c2c(nc3ccccc13)C(=O)N(C1CCCCC1)C2)c1cccs1 (stereo not shown)", "remaining compound [%]": 38.6}
{"Compound": "CC(=O)O[C@@H]1CC2C(C)(CC[C@H](O)C2(C)C)C2CC[C@]3(C)C(=CC(=O)O[C@H]3c3ccoc3)C21C (stereo partly shown)", "remaining compound [%]": 3.69}
{"Compound": "OC1=C2C(=Nc3ncnn3C2c2cn(-c3ccccc3)nc2-c2cccnc2)CCC1 (stereo not shown)", "remaining compound [%]": 16.3}
{"Compound": "COc1ccc(OC)c(NC(=O)c2cc(S(=O)(=O)N3CCC(C)CC3)c(C)n2C)c1", "remaining compound [%]": 2.77}
{"Compound": "O=C(COc1ccc2c3ccccc3n(C(=O)c3cccnc3)c2c1)N1CCCCC1", "remaining compound [%]": 0.101}
{"data": "Sample 4", "target": "Calcium/calmodulin-dependent protein kinase type II subunit alpha (CAMK2A, Homo sapiens, UniProt Q9UQM7)", "read-out": "enzyme activity", "action": "inhibitor", "tested at": "10 µM", "chain of UniProt Q9UQM7 (whole entry, looked up)": "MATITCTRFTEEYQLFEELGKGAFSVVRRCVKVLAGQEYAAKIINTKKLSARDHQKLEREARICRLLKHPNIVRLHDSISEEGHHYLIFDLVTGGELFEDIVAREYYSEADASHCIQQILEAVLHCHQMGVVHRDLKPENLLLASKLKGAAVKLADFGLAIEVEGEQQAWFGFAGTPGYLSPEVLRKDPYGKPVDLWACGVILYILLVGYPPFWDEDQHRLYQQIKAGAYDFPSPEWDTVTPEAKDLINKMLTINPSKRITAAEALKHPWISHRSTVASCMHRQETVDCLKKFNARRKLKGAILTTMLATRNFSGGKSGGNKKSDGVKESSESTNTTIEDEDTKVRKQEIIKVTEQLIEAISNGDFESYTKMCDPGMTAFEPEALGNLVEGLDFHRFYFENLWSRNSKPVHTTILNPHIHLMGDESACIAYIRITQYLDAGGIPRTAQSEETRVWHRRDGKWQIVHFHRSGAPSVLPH"}
{"SMILES": "COc1ccc(-c2cc(=O)c3c(O)c(OC)c(OC)cc3o2)cc1O", "inhibition": "8%"}
{"SMILES": "C[C@]12C=CC(=O)C=C1CC[C@@H]1[C@@H]2[C@@H](O)C[C@@]2(C)[C@H]1CC[C@]2(O)C(=O)CO", "inhibition": "-1%"}
{"SMILES": "COc1cc2c(cc1OC)[C@H]1C[C@@H](OC(=O)[C@@H](N)C(C)C)[C@H](CC(C)C)CN1CC2", "inhibition": "-5%"}
{"SMILES": "C=C1C[C@]23C[C@@]1(O)CC[C@H]2[C@@]12C=C[C@H](O)[C@@](C)(C(=O)O1)[C@H]2[C@@H]3C(=O)O", "inhibition": "27%"}
{"SMILES": "Cc1cc2cc3c(C)cc(=O)oc3c(C)c2o1", "inhibition": "-6%"}
{"SMILES": "CCN(CC)C(=O)c1cccnc1", "inhibition": "-11%"}
{"note": "For quick reference, copied from above (sample 1):"}
{"SMILES": "Nc1ncnc2n[nH]c(Nc3ccc(F)cc3)c12", "remaining activity": "100%"}
{"SMILES": "CC(C)[C@H](CO)Nc1nc(Nc2cc(N)cc(Cl)c2)c2ncn(C(C)C)c2n1", "remaining activity": "69.2%"}
{"SMILES": "COc1ccc(C(=O)Nc2sc3c(c2C(N)=O)CCCC3)cc1OC", "remaining activity": "102%"}
{"SMILES": "Oc1ccc(-c2nc(-c3ccncc3)c(-c3ccc(F)cc3)[nH]2)cc1", "remaining activity": "101%"}
{"SMILES": "O=C1NC(=O)C(c2cn(CCCO)c3ncccc23)=C1c1cnccn1", "remaining activity": "121%"}
{"SMILES": "Cn1c2ccccc2c2c3c(c4c5ccccc5n(CCC#N)c4c21)CNC3=O", "remaining activity": "78.4%"}
